# Measurements collected from several papers.
# Protocols differ between the studies behind these lines.
Substance,organism,assay,test system,conditions,MIC
CC(C)(C)OCC1NC(=O)C(C(=O)NC(C(=O)NC2C(=O)N3C2SC(C)(C)C3C(=O)O)c2ccccc2)=C1O (stereo not shown),Escherichia coli,broth microdilution,"BW25113, Mueller-Hinton broth",,50 µg/mL
pneumocandin A0,Candida albicans,"broth microdilution, resazurin",ATCC 10231,"24 h, 35 °C",0.8 µg/mL
Cc1ccc(S(=O)(=O)N2C(=O)CSC2c2ccccc2)cc1 (stereo not shown),Lacticaseibacillus casei,broth microdilution,NCIM 2651,,64 µg/mL
CC1(C)SC2C(NC(=O)C(NC(=O)C3=C(O)CN(c4ccccc4)C3=O)c3ccccc3)C(=O)N2C1C(=O)O (stereo not shown),Escherichia coli,broth microdilution,"BW25113, Mueller-Hinton broth","added: 2,2'-bipyridyl 30 µg/mL",100 µg/mL
Cc1ccc(S(=O)(=O)N2C(=O)CSC2c2cccc(C)c2)cc1 (stereo not shown),Lacticaseibacillus casei,broth microdilution,NCIM 2651,,64 µg/mL
OB(O)O,Serratia marcescens,broth macrodilution,clinical isolate,added: zinc borate 9%,0.375%
LSTFFRLFN,Streptococcus sanguinis,broth microdilution,"peptide, ATCC 49295","24 h, 37 °C, planktonic, anaerobic",> 256 µg/mL
Cc1ccc(S(=O)(=O)N2C(=O)CSC2c2ccccc2F)cc1 (stereo not shown),Lacticaseibacillus casei,broth microdilution,NCIM 2651,,4 µg/mL
CC(C)(C)Oc1ccc(CC2NC(=O)C(C(=O)NC(C(=O)NC3C(=O)N4C3SC(C)(C)C4C(=O)O)c3ccccc3)=C2O)cc1 (stereo not shown),Escherichia coli,broth microdilution,"BW25113, Mueller-Hinton broth",added: CCCP 50 µg/mL,12.5 µg/mL
C[C@@H](c1ncncc1F)[C@](O)(Cn1cncn1)c1ccc(F)cc1F,Acanthamoeba castellanii,"parasite growth, resazurin",,96 h,0.03 µg/mL
CC1(C)S[C@@H]2[C@H](NC(=O)[C@H](N)c3ccccc3)C(=O)N2[C@H]1C(=O)O,Streptococcus mutans,serial dilution,ATCC 25175,"24 h, 37 °C",5 µg/mL
O=C(N[C@@H](Cn1ccnc1)c1ccc(Cl)cc1Cl)c1ccc(-c2nnc(-c3ccccc3)o2)cc1,Acanthamoeba castellanii,"parasite growth, resazurin",,96 h,8 µg/mL
Cc1ccc(S(=O)(=O)N2C(=O)CSC2c2cccc(O)c2)cc1 (stereo not shown),Lacticaseibacillus casei,broth microdilution,NCIM 2651,,32 µg/mL
CC1(C)SC2C(NC(=O)C(NC(=O)C3=C(O)C(Cc4ccc([N+](=O)[O-])cc4)NC3=O)c3ccccc3)C(=O)N2C1C(=O)O (stereo not shown),Escherichia coli,broth microdilution,"BW25113, Mueller-Hinton broth","added: 2,2'-bipyridyl 30 µg/mL",25 µg/mL
Cc1ccc(S(=O)(=O)N2C(=O)CSC2c2ccccc2O)cc1 (stereo not shown),Lacticaseibacillus casei,broth microdilution,NCIM 2651,,64 µg/mL
CC1(C)SC2C(NC(=O)C(NC(=O)C3=C(O)CNC3=O)c3ccccc3)C(=O)N2C1C(=O)O (stereo not shown),Escherichia coli,broth microdilution,"BW25113, Mueller-Hinton broth","18 h, without clavulanic acid",200 µg/mL

# Repeated from above:
Substance,organism,assay,test system,conditions,MIC
Cc1ccc(S(=O)(=O)N2C(=O)CSC2c2ccccc2O)cc1 (stereo not shown),Lacticaseibacillus casei,broth microdilution,NCIM 2651,,64 µg/mL
Cc1ccc(S(=O)(=O)N2C(=O)CSC2c2cccc(C)c2)cc1 (stereo not shown),Lacticaseibacillus casei,broth microdilution,NCIM 2651,,64 µg/mL
